Measured values pooled from the literature.
Numbered parts are unrelated; each lists some results of a single study. Values joined by “and” are separate records of one study, mostly repeats; a detail may differ.
Sequence of UniProt P42681 (whole entry, looked up): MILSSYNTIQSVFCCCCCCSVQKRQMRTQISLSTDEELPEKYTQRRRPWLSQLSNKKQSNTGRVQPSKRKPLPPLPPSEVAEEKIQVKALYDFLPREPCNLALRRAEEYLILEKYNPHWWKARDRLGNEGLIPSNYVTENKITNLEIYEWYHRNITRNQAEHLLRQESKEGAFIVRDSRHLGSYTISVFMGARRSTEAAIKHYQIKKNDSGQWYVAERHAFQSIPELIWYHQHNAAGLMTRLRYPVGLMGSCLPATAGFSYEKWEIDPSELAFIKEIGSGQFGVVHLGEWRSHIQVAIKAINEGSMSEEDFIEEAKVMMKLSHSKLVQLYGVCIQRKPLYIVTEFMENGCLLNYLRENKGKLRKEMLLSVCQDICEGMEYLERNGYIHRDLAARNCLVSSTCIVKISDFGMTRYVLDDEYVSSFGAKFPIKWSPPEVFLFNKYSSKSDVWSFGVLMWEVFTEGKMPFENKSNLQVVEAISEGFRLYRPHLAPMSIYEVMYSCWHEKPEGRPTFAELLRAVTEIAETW
Sequence of UniProt Q09013 (whole entry, looked up): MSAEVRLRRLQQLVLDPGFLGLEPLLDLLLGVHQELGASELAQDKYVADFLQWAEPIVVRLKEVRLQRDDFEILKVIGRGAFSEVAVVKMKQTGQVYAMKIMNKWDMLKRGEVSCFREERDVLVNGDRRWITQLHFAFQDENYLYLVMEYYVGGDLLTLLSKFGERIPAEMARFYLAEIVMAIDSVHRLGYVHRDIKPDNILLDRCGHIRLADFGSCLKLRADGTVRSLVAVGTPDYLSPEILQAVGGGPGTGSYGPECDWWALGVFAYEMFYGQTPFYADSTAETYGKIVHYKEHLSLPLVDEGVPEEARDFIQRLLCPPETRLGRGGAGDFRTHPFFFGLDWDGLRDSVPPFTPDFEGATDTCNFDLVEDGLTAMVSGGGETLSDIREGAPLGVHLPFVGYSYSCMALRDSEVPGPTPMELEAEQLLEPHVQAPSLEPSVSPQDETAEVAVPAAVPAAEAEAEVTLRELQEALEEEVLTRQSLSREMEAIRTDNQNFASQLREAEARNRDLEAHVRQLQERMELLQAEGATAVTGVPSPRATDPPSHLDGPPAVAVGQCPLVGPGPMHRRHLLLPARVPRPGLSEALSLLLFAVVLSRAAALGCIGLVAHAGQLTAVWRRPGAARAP
Sequence of UniProt Q00537 (whole entry, looked up): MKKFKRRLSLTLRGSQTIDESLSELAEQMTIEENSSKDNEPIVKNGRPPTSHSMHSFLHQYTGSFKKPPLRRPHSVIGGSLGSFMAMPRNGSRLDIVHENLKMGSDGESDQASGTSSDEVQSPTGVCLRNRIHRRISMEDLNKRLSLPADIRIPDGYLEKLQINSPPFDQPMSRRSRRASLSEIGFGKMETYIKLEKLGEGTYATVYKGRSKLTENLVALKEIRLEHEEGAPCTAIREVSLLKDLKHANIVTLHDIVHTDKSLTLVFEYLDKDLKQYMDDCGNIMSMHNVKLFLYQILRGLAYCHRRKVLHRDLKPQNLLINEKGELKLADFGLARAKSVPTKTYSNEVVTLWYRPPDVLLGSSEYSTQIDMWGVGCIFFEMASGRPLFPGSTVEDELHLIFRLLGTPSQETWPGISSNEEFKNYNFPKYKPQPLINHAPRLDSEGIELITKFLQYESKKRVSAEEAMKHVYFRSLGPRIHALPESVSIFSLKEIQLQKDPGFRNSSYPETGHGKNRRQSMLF
Sequence of UniProt P11362 (whole entry, looked up): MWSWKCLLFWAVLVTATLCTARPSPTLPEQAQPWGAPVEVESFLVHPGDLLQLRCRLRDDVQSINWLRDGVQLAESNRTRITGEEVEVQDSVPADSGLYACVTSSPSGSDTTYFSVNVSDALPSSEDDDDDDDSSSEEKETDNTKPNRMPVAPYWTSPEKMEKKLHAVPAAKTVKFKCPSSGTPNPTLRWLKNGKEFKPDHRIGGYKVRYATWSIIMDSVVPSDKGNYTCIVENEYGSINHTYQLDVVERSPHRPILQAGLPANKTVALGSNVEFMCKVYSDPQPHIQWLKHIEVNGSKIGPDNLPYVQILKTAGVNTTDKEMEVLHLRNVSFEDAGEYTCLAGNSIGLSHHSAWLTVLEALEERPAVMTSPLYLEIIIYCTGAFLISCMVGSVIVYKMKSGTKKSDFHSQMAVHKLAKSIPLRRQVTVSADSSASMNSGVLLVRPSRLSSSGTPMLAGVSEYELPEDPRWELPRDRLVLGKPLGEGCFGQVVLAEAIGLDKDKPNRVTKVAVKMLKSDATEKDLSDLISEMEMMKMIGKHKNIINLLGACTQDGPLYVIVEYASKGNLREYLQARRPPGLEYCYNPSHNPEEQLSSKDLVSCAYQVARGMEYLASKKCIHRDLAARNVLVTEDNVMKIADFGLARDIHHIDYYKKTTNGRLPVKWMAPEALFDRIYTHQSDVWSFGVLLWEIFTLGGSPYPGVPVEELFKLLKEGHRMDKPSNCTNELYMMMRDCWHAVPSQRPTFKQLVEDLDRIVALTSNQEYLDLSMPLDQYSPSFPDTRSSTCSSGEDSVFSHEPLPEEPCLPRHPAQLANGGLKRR
Sequence of UniProt P42336 (whole entry, unmodified, looked up): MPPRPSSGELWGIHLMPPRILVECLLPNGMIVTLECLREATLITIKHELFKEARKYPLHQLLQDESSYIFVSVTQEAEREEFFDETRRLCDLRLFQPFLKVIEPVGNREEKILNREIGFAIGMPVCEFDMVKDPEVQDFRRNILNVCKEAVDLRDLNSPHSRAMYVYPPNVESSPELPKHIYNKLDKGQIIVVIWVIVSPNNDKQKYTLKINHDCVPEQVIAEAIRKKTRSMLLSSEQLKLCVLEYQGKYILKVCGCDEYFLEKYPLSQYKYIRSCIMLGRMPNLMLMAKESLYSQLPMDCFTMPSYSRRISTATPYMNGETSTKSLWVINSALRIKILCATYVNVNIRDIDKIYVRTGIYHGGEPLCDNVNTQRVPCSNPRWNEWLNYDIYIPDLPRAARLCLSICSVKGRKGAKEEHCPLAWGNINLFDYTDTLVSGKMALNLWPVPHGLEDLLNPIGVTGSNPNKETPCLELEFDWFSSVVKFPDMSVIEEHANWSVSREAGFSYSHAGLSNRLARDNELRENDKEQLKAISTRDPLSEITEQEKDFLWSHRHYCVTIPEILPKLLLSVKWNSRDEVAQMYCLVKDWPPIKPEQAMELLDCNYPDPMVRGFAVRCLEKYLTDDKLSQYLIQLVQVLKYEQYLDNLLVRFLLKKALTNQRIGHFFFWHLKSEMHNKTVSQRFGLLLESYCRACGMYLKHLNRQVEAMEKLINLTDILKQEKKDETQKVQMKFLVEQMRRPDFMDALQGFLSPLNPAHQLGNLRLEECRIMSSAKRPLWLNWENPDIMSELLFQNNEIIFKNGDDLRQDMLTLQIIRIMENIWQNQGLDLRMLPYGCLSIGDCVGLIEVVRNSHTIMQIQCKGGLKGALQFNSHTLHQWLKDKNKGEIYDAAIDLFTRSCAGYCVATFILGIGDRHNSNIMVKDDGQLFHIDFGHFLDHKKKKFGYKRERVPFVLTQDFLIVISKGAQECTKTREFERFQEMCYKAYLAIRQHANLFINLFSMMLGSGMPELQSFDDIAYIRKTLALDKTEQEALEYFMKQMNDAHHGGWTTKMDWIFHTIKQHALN
Sequence of UniProt Q86YV6 (whole entry, looked up): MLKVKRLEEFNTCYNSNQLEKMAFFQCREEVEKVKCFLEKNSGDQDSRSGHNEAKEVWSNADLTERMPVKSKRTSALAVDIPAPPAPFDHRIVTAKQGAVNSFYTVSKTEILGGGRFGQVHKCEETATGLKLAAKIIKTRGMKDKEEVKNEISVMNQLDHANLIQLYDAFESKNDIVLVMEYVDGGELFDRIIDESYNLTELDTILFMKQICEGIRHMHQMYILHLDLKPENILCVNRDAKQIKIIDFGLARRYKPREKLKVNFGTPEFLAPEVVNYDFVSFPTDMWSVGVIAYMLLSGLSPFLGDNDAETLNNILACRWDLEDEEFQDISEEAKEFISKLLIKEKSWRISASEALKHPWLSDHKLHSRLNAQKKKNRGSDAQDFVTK

Series 1
SMILES: O=C(Nc1ccc(Oc2ccc(F)cc2)cc1)N1CCc2ncccc2[C@H]1c1ccc(F)cc1
Method: competition with immobilised ligand
Tested at: 1 µM
target | assay | remaining binding
Myosin light chain kinase 2, skeletal/cardiac muscle (MYLK2, Homo sapiens, UniProt Q9H1R3) | cell-free assay | 100%
Cyclin-dependent kinase 17 (CDK17, Homo sapiens, UniProt Q00537) | cell-free assay | 96%
Dual specificity protein kinase TTK (TTK, Homo sapiens, UniProt P33981) | cell-free assay | 94%
Serine/threonine-protein kinase MRCK beta (CDC42BPB, Homo sapiens, UniProt Q9Y5S2) | cell-free assay | 88%
Epidermal growth factor receptor (EGFR, Homo sapiens, UniProt P00533, del746-750) | cell-free assay | 100%
Myotonin-protein kinase (DMPK, Homo sapiens, UniProt Q09013) | cell-free assay | 91%
Phosphatidylinositol 4,5-bisphosphate 3-kinase catalytic subunit alpha isoform (PIK3CA, Homo sapiens, UniProt P42336, E542K) | cell-free assay | 71%
Epidermal growth factor receptor (EGFR, Homo sapiens, UniProt P00533, del747-750/T751S) | cell-free assay | 74%
Aurora kinase C (AURKC, Homo sapiens, UniProt Q9UQB9) | cell-free assay | 87%
BMP-2-inducible protein kinase (BMP2K, Homo sapiens, UniProt Q9NSY1) | cell-free assay | 94%
Serine/threonine-protein kinase SBK1 (SBK1, Homo sapiens, UniProt Q52WX2) | cell-free assay | 89%
Serine/threonine-protein kinase 10 (STK10, Homo sapiens, UniProt O94804) | cell-free assay | 100%
Tyrosine-protein kinase TXK (TXK, Homo sapiens, UniProt P42681) | binding | 100%
Myosin light chain kinase family member 4 (MYLK4, Homo sapiens, UniProt Q86YV6) | cell-free assay | 97%
Bone morphogenetic protein receptor type-1B (BMPR1B, Homo sapiens, UniProt O00238) | cell-free assay | 87%
Proto-oncogene tyrosine-protein kinase Src (SRC, Homo sapiens, UniProt P12931) | cell-free assay | 91%
Mitogen-activated protein kinase kinase kinase 1 (MAP3K1, Homo sapiens, UniProt Q13233) | cell-free assay | 87%
Receptor-type tyrosine-protein kinase FLT3 (FLT3, Homo sapiens, UniProt P36888, D835V/ITD) | cell-free assay | 93%
Mitogen-activated protein kinase kinase kinase 15 (MAP3K15, Homo sapiens, UniProt Q6ZN16) | cell-free assay | 100%
Fibroblast growth factor receptor 1 (FGFR1, Homo sapiens, UniProt P11362) | cell-free assay | 100%

Series 2
Target: Calcium/calmodulin-dependent protein kinase type II subunit alpha (CAMK2A, Homo sapiens, UniProt Q9UQM7)
Sequence of UniProt Q9UQM7 (whole entry, looked up): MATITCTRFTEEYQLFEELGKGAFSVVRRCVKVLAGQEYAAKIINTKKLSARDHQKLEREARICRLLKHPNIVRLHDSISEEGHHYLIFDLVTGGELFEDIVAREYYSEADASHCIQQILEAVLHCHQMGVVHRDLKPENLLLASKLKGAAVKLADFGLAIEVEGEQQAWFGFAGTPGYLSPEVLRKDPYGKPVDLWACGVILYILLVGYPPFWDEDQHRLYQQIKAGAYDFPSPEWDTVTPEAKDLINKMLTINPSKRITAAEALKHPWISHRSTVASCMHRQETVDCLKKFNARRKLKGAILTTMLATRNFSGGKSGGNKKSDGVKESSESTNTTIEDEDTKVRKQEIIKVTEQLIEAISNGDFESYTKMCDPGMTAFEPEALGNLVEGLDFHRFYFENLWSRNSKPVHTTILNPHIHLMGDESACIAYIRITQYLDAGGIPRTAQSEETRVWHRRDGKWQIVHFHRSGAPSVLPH
Read-out: enzyme activity
Action: inhibitor
Tested at: 10 µM
Structure (SMILES) | inhibition
CC1(C)[C@@H]2CC[C@@]1(C)[C@H](O)C2 | 11%
NC1=NCC2c3ccccc3Cc3ccccc3N12 (stereo not shown) | -6%
CO[C@H]1c2cc(C(C)C)c(O)c(O)c2[C@@]23CCCC(C)(C)[C@@H]2[C@@H]1OC3=O | 10%
COc1ccc2c(c1OC)CN1CCc3cc4c(cc3C1=C2)OCO4 | -3%
COc1cc2c(cc1OC)-c1cc3ccc4c(c3c(=O)n1CC2)OCO4 | 7%
CC[C@]1(O)C[C@H]2CN(CCc3c([nH]c4ccccc34)[C@@](C(=O)OC)(c3cc4c(cc3OC)N(C=O)[C@H]3[C@@](O)(C(=O)OC)[C@H](OC(C)=O)[C@]5(CC)C=CCN6CC[C@]43[C@@H]65)C2)C1 | 11%
NC(=O)c1ncn([C@@H]2O[C@H](CO)[C@@H](O)[C@H]2O)c1O | -12%
C=CC(=C)CCC=C(C)C | 23%
COc1ccc(-c2cc(=O)c3c(O)c(OC)c(O)c(OC)c3o2)cc1 | 17%

Series 3
Host: human
Sample: microsomes or S9
Tested at: 2 µM
Time: 0.5 h
SMILES | remaining compound
NS(=O)(=O)c1ccc(CCNc2nc3c(S(=O)(=O)c4ccccc4)nnn3c3ccccc23)cc1 | 14.6%
O=C(NCCCCCCNC(=O)N1CCCCC1)N1CCCCC1 | > 99.9%
CCCC1CN(CC(=O)N(C(C)C)C(C)C)CCN1CC(=O)N(C(C)C)C(C)C (stereo not shown) | 15%
CS(=O)(=O)N1CCCC1C(=O)Nc1nc2cc3c(cc2s1)OCO3 (stereo not shown) | 0.0123%
Cc1ccccc1-c1nc2ccccc2cc1C(C)Nc1ncnc(Cl)c1N (stereo not shown) | 39.2%
COc1cc(=O)n2c(c1C(=O)NCc1ccc(F)cc1)CCCC2 | 71%
CS(=O)(=O)N(Cc1ccco1)Cc1ccc(C(=O)O)o1 | 96.5%
COCCNC(=O)C(c1ccc(Cl)cc1)N(CCOC)C(=O)CCC(=O)Nc1ccccn1 (stereo not shown) | 20.6%
COC(=O)c1ccc(Oc2c(C)nn(C(=O)c3ccc(Cl)nc3)c2C)cc1 | 98%
COCc1cc(C)nc2sc(C3=NC(C)(C)Cc4cc(OC)c(OC)cc43)c(N)c12 | 1.43%

Series 4
Cell line: mouse MPNST tumor cells
Method: high-content immunofluorescence imaging
Measured: nuclear SOX9
Tested at: 10 µM
Time: 12 h
Notes: mean of 2 replicates
Relative to: DMSO control
Direction: higher = more nuclear SOX9
SMILES | nuclear SOX9 intensity
CCCNC(C)C(=O)Nc1c(C)csc1C(=O)OC (stereo not shown) | 83.5 % of DMSO
CC(=O)Oc1cccc2c1C(=O)c1c(OC(C)=O)cc(C(=O)O)cc1C2=O | 104 % of DMSO and 111 % of DMSO
CN(C)CCN(Cc1ccc(Cl)cc1)c1ccccn1 | 162 % of DMSO
C[C@@H](O)CNC(C)(C)CC(=O)N[C@@H]1CCc2ccccc2N(Cc2ccc(-c3ccccc3-c3nn[nH]n3)cc2)C1=O | 93.4 % of DMSO
CCOc1ccc2nc(S(N)(=O)=O)sc2c1 | 70.4 % of DMSO
O=C(O)c1c(Sc2ccccc2)c2cc(Cl)ccc2n1Cc1ccc(Cl)cc1 | 90.3 % of DMSO
O=C(O)Cc1ccccc1Nc1c(Cl)cccc1Cl | 100 % of DMSO

Repeated from above (series 1):
target | assay | remaining binding
Serine/threonine-protein kinase 10 (STK10, Homo sapiens, UniProt O94804) | cell-free assay | 100%
Tyrosine-protein kinase TXK (TXK, Homo sapiens, UniProt P42681) | binding | 100%
Myosin light chain kinase family member 4 (MYLK4, Homo sapiens, UniProt Q86YV6) | cell-free assay | 97%
Bone morphogenetic protein receptor type-1B (BMPR1B, Homo sapiens, UniProt O00238) | cell-free assay | 87%
Proto-oncogene tyrosine-protein kinase Src (SRC, Homo sapiens, UniProt P12931) | cell-free assay | 91%
